Measurements from different studies.
Compare with care: the assays were run in different laboratories. Numbers after ± are the reported error.

The chains behind the UniProt entries cited, without tags or fusion partners. Residues count along the entry.
UniProt P30291, whole entry: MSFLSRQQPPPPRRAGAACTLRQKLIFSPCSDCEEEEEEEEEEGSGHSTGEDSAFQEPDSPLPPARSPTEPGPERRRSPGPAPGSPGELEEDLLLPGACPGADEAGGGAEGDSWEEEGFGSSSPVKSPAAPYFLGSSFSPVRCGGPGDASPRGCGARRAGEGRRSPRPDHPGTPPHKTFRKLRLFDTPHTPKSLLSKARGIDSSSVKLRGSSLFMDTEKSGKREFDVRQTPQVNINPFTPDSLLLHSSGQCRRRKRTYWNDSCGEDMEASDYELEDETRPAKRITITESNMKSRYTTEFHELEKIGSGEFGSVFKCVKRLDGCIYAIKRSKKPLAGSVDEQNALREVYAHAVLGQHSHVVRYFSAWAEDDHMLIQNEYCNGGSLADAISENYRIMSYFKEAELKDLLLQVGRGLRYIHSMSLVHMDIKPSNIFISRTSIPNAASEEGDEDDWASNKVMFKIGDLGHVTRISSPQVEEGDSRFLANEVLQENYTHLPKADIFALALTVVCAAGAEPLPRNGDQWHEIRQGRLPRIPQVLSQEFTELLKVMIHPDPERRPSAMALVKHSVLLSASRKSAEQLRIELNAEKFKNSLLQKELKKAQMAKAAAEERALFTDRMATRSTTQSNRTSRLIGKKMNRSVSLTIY
UniProt Q96SW2, whole entry: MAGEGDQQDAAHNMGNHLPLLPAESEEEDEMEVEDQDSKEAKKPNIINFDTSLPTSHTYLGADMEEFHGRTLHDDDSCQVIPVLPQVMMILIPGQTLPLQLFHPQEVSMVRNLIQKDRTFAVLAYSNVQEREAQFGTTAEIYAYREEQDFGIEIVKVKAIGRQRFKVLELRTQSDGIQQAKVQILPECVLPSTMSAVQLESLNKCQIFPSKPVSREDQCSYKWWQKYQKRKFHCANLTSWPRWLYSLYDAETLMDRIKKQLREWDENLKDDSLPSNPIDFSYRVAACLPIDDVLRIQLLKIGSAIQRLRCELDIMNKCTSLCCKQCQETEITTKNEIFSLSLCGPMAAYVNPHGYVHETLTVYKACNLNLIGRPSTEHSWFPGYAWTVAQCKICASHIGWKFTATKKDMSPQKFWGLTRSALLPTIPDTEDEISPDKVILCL
UniProt Q86U86, whole entry V269I, looked up: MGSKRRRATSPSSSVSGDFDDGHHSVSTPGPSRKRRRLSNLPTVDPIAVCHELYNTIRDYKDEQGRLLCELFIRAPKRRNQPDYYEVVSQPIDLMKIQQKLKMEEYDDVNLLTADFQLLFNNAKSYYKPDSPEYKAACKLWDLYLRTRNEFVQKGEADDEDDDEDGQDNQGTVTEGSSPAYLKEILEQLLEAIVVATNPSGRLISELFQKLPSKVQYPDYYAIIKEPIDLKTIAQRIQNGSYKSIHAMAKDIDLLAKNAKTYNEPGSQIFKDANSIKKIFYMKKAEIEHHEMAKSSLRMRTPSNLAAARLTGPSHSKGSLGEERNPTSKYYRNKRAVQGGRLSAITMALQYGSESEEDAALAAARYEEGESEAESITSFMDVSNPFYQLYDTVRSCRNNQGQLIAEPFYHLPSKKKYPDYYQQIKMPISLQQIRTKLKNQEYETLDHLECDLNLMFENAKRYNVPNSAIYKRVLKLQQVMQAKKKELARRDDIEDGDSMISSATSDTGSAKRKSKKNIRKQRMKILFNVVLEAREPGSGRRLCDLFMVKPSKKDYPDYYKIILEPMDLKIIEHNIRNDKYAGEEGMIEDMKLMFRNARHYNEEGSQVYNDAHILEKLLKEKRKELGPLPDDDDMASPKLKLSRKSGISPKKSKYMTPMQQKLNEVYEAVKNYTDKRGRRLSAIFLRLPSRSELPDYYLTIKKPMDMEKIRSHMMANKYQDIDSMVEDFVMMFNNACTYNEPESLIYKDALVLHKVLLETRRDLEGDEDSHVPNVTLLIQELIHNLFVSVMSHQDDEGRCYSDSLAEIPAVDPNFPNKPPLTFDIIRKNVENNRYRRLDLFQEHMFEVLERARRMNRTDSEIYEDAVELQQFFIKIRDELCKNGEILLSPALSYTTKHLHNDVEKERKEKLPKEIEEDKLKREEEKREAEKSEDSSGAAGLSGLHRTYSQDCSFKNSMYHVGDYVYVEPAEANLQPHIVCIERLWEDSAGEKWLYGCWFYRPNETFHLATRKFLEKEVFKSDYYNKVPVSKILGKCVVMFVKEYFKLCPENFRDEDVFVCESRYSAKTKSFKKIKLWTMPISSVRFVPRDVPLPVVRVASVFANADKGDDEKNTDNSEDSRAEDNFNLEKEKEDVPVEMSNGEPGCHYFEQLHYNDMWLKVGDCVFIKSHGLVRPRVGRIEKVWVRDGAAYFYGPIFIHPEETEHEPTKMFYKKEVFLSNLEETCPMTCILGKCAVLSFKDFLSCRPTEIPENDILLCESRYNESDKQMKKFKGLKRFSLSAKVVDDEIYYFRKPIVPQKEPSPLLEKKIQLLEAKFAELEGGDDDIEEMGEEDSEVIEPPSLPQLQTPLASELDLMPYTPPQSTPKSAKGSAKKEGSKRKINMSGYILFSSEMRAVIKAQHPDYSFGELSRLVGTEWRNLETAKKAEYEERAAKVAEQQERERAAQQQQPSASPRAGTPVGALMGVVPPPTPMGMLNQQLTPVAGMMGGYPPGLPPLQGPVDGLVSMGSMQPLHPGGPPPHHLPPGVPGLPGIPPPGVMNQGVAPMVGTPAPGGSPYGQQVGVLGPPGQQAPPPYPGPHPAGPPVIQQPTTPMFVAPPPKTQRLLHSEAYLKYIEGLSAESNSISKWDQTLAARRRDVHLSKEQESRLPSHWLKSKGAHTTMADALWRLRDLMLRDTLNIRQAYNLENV
UniProt P53779, 1-422 isoform 2: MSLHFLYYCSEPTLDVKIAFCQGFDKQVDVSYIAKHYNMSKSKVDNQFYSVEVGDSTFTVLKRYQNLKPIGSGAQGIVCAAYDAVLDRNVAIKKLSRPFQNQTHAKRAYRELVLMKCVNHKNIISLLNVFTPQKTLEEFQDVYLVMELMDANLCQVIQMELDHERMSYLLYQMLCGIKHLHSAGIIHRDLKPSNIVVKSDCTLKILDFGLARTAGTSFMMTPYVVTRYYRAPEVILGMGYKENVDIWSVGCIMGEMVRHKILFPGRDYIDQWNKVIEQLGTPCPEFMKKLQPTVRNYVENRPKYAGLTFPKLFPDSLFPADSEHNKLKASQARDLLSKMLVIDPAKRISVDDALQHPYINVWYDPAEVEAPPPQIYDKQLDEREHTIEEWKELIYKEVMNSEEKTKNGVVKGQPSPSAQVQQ
UniProt Q16531, whole entry partner: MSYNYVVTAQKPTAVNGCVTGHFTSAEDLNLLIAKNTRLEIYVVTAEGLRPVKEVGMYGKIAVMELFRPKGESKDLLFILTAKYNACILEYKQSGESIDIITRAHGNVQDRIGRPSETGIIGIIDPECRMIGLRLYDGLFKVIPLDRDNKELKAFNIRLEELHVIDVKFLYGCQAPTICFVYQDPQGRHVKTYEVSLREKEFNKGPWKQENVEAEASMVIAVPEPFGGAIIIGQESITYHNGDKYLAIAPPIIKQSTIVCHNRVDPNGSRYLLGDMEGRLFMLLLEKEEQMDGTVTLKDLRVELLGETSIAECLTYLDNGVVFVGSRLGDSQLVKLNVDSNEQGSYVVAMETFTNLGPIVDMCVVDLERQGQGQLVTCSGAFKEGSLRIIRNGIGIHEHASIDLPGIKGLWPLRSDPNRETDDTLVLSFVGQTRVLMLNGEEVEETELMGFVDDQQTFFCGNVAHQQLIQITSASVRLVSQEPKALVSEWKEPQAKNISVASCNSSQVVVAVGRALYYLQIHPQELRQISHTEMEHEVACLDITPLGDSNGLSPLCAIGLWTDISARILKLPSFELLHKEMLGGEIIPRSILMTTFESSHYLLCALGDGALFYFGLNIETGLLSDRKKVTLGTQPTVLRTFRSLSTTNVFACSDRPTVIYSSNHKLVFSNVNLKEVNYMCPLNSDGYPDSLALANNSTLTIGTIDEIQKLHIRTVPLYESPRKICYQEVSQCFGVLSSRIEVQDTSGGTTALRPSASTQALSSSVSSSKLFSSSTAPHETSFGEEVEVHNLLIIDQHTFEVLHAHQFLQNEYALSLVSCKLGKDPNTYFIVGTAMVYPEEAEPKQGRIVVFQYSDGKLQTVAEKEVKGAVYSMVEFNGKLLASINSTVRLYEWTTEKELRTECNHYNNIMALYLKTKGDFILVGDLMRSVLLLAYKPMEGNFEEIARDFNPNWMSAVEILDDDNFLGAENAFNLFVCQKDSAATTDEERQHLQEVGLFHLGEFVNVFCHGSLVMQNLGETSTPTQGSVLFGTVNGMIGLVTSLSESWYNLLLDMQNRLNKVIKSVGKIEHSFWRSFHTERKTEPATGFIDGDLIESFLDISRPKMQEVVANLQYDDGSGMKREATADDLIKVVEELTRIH

| Compound | target or system | test | system | setting | how to read | quantity | result |
| --- | --- | --- | --- | --- | --- | --- | --- |
| O=C1CCC(N2Cc3cc(-c4nc5ccccn5c4Cl)ccc3C2=O)C(=O)N1 (stereo not drawn) | WEE1/CRBN (Homo sapiens, UniProt P30291+Q96SW2) | degrader, HiBiT luciferase | Jurkat (HiBiT-tagged) | 5 h |  | DC50 | 0.01 ± 0.008 µM |
| CCOc1ccccc1Nc1nnc(SCC(=O)Nc2cc(F)ccc2F)s1 | A549 spheroids with human PBMCs |  |  | 5 µM, 48 h, E:T 5:1, with: anti-CD3 0.3 µg/mL |  | IFN-γ level | 71 ± 6 pg/mL |
| C/C=C/Cn1c(Cc2cc(OC)c(OC)c(OC)c2)nc2c(N)ncnc21 | Grp94 | binding, fluorescence polarization competition |  |  |  | Ki | 22.8 ± 2 µM |
| CCOC(=O)C1=C(C)NC2=C(C(=O)CC(C)(C)C2)C1c1ccc(OCC(=O)NN=Cc2cccc(C=O)c2)cc1OCC(=O)NN=Cc1cccc(C=O)c1 (stereo not drawn) | Proteus vulgaris |  |  | concentration not given, 24 h |  | inhibition zone diameter | 3.5 ± 0.6 mm |
| Cc1cc(SCc2sc(-c3ccccc3Cl)nc2C)ccc1OCC(=O)O | HEK293T |  |  | 18 h |  | CC50 | > 80 µM |
| CCC1NC(=O)C(CCCNC(=N)N)NC(=O)C(C)(NC(=O)C(C)C)CCCCNC(=O)C(c2ccccc2)NC1=O (stereo not drawn) |  | immunoblot | MLL-AF9 leukaemia cells, mouse | dose not given, 4 days |  | global H3K4 methylation | no effect |
| Cc1cccc(C2NC(=O)c3c(Cl)cccc3N2)c1 (racemic) | Protein polybromo-1, BD2 (PBRM1, Homo sapiens, UniProt Q86U86, V269I) | ITC |  | mutant |  | Kd | 11 ± 2 µM |
| COC(=O)[C@@]1(C)C=C(C(=O)Nc2cccc(C(=O)NC34CC(Nc5nccc(-c6cccnc6)n5)(C3)C4)c2)C(=O)CC1 | MAPK10 (Homo sapiens, UniProt P53779) | enzyme activity, inhibitor |  | 2.788e-05 µM |  | remaining activity | 1.01 fraction of control |
| COc1cc([C@@H]2c3cc4c(cc3[C@](O)(C3(O)CCOCC3)[C@H]3COC(=O)[C@H]23)OCO4)cc(OC)c1OC | Leishmania infantum | Alamar Blue | HepG2 |  | relative to: CC50 HepG2 over EC50 amastigotes | selectivity index | > 17.1 |
| Cc1cc(SCc2sc(-c3cc(Cl)cc(Cl)c3)nc2C)ccc1OCC(=O)O | HEK293T |  |  | 18 h |  | CC50 | > 50 µM |
| Nc1ncc(-c2ccc3ncnc(N4CCc5cc(F)c(Cl)cc54)c3c2)cn1 |  |  | CD1 mouse, brain | intravenous, 5 mg/kg |  | dose-normalised AUC(0-t) | 580 mg·h/mL |
| COc1cc([C@@H]2c3cc4c(cc3C=C(C=O)[C@H]2C(=O)OCCCn2cnc3c(Cl)ncnc32)OCO4)cc(OC)c1OC | Leishmania |  | mouse splenocytes |  | relative to: CC50 over amastigote EC50 | selectivity index | 0.7 |
| CCCCN(CCc1ccc(Cl)c(Cl)c1)C[C@H](O)COc1ccc(NS(C)(=O)=O)cc1 |  | neuroprotection, item: infarct volume | mouse, transient MCAO | intraperitoneal, 20 min before occlusion |  | ED50 | < 1 mg/kg |
| CC(=NN=c1[nH]c2cc(F)c(F)cc2n1C)c1ccc(F)cn1 |  | item: CD31 | MDA-MB-231 xenograft, SCID mice | 10 mg/kg/day | relative to: vehicle | microvascular density reduction | 40% |
| C[C@@H]1CN(C2CCC2)CC[C@H](O[C@H]2[C@@H](O)C[C@H](O[C@H]3[C@@H](O)C[C@H](O[C@H]4CC[C@@]5(C)[C@H](CC[C@@H]6[C@@H]5C[C@@H](O)[C@]5(C)[C@@H](C7=CC(=O)OC7)CC[C@]65O)C4)O[C@@H]3C)O[C@@H]2C)O1 |  |  | rat hippocampal slices | 1 µM, ~14 min, trace 2, with: electrical stimulation | relative to: pre-drug control | peak stimulus-induced K+ rise | 116 ± 5% |
| COc1cc([C@@H]2c3cc4c(cc3[C@H](CC(C)C)[C@H]3COC(=O)[C@H]23)OCO4)cc(OC)c1OC | Leishmania infantum | Alamar Blue | HepG2 |  | relative to: CC50 HepG2 over EC50 amastigotes | selectivity index | > 6.4 |
| C=CC(=O)N1CCC(c2cc(Nc3cc4n(n3)CCOC4)c3ncnn3c2)C1 (single isomer, unassigned) | TMD8 | calcium flux, FLIPR |  | 2 h preincubation, with: anti-IgM |  | IC50 | > 1 µM |
| CCn1nccc1N=CC1=Cc2cc3c(cc2[C@@H](c2cc(OC)c(OC)c(OC)c2)[C@@H]1C(=O)OC)OCO3 | Leishmania infantum |  | promastigote, iRFP |  |  | EC50 | 14.2 ± 2.1 µM |
| CN(C)C(=O)Cn1cc(-c2ccc(-c3cncc4ccncc34)cc2)cn1 | HL-60 | flow cytometry |  | concentration not given, 24 h |  | viability | no effect |
| COC(=O)[C@@H]1C(c2nc3ccccc3s2)=Cc2cc3c(cc2[C@H]1c1cc(OC)c(OC)c(OC)c1)OCO3 | Leishmania infantum | Alamar Blue | HepG2 |  | relative to: CC50 HepG2 over EC50 amastigotes | selectivity index | 0.5 |
| Cc1ncsc1-c1ccc([C@H](C)NC(=O)[C@@H]2C[C@@H](O)CN2C(=O)[C@@H](NC(=O)CCCCCCC(=O)N2CCN(C[C@]3(C)CCC(c4ccc(Cl)cc4)=C(CN4CCN(c5ccc(C(=O)NS(=O)(=O)c6ccc(N[C@H](CCN7CCOCC7)CSc7ccccc7)c(S(=O)(=O)C(F)(F)F)c6)cc5)CC4)C3)CC2)C(C)(C)C)cc1 |  | item: Cdkn2a | naturally aged mice, fat | intraperitoneal, 5 mg/kg every 3 days |  | mRNA level | no effect |

For quick reference, copied from above:
| Compound | target or system | test | system | setting | how to read | quantity | result |
| --- | --- | --- | --- | --- | --- | --- | --- |
| O=C1CCC(N2Cc3cc(-c4nc5ccccn5c4Cl)ccc3C2=O)C(=O)N1 (stereo not drawn) | WEE1/CRBN (Homo sapiens, UniProt P30291+Q96SW2) | degrader, HiBiT luciferase | Jurkat (HiBiT-tagged) | 5 h |  | DC50 | 0.01 ± 0.008 µM |
| Cc1cc(SCc2sc(-c3cc(Cl)cc(Cl)c3)nc2C)ccc1OCC(=O)O | HEK293T |  |  | 18 h |  | CC50 | > 50 µM |
